Experimental data of several laboratories.
Each line is one published result; not all experiments were run side by side. Numbers after ± are the reported error.

SMILES | cell line | assay | conditions | IC50
COc1ccc(-c2cc3ccccc3[nH]2)cc1 | HEK293 NF-κB luciferase reporter | reporter gene, item: NF-κB | 6 h, added: TNFα | 1.4 ± 0.1 µM
C[C@@H]1COCCN1c1nc(-c2cnc(N)c(C(F)(F)F)c2)nc2c1C[C@@H]1COCCN21 | A2058 | In-Cell Western, item: phospho-S6 Ser235/236 | 1 h | < 0.55 µM
CCOC(=O)c1ccc2c(c1)n(CC)c[n+]2CC | RC-124 kidney epithelial | cell proliferation, crystal violet staining | 96 h | > 100 µM
C=CCc1ccc(OCc2nnc(SCC(=O)N3CCOCC3)o2)c(OC)c1 | SK-OV-3 | cell growth or viability, MTT | 72 h | 61.1 µM
COc1cc(C(=O)c2sc3ccccc3c2NC(=O)CO[N+](=O)[O-])cc(OC)c1OC | L1210 | cell growth or viability | 24 h | 0.31 µM
CN1CCC2(CC1)C/C(=N\N=C\c1ccc(O)cc1)c1ccccc1O2 | MCF7, HCT-116, PC-3 | cell growth, MTT | range over cell lines | 1.15 to 10.1 µM
O=C(Nc1nccs1)C(c1cc(F)ccc1O)N1Cc2ccccc2C1=O (centres unmarked) | Ba/F3 EGFR L858R | cell proliferation, MTS | compound alone | ~10 µM
COc1ccc(C[C@H]2COC(=O)[C@@H]2Cc2ccc(OCCCCCCC(=O)NO)c(OC)c2)cc1OC | CCRF-CEM | cell growth or viability, CCK-8 | 48 h | 1.37 µM
Cc1ccc2nc(NCCN)c3ncc(C)n3c2c1 | MGC-803 | cell growth or viability, MTT | 72 h | 13.3 µM
O=C(/C=C/c1ccc(O)c(CN2CCOCC2)c1)c1ccc(F)cc1 | WRL68 | cell growth or viability, MTT | 72 h | 16.1 µM
COC(=O)c1c(-c2ccccc2C)c2n(c1C(=O)OC)CCn1cccc1-2 | PANC-1 | cell growth or viability, MTT | 48 h | 67.9 µM
O=C1C(=Cc2ccccc2)CN(C(=O)c2cccc(C(=O)N3CC(=Cc4ccccc4)C(=O)C(=Cc4ccccc4)C3)c2)CC1=Cc1ccccc1 | L1210 | cell growth or viability | – | 150 µM
CC1(C)C=Cc2cc3ccc(=O)oc3cc2O1 | LAPC4 | AR transcriptional activity, antagonist, PSA promoter luciferase | 24 h | 5 µM
O=C(O)c1cc(O)c2c(c1)C(=O)c1cccc(O)c1C2=O | CCRF-CEM | cell growth or viability, ATP luminescence | 24 h | 140 µM
COc1ccccc1-c1nccc(COc2ccccc2C[C@@H](Oc2ccnc3sc(-c4ccc(F)cc4)c(-c4ccc(OCCN5CCN(C)CC5)c(Cl)c4C)c23)C(=O)O)n1 | NCI-H929 | cell viability, MTT | 48 h, 10% CFS | 0.0091 µM
COc1cc(C(=O)c2sc3c(C)cccc3c2NC(C)=O)cc(OC)c1OC | L1210 | cell growth or viability | 24 h | 0.053 µM
COC(=O)c1ccc2c(c1)NC(=O)/C2=C(\Nc1ccc(N(C)C(=O)CN2CCN(C)CC2)cc1)c1ccccc1 | human Fibroblast | cell growth or viability, thymidine uptake | 48 h | 0.526 µM
COC(=O)c1c(-c2ccccc2)c2n(c1C(=O)OC)CCn1cccc1-2 | PANC-1 | cell growth or viability, MTT | 48 h | 70.1 µM
CS(=O)(=O)N1CCN(Cc2cc3nc(-c4cccc5[nH]ncc45)nc(N4CCOCC4)c3s2)CC1 | IGROV-1 | AKT Ser473 phosphorylation, inhibitor, electrochemiluminescent immunoassay | 8 h | 0.038 ± 0.013 µM
COC(=O)c1c(-c2cccc(Cl)c2)c2n(c1C(=O)OC)CCn1cccc1-2 | PANC-1 | cell growth or viability, MTT | 48 h | 57 µM
O=C1c2c(O)ccc(O)c2C(=O)c2c(NCCNCCO)ccc(NCCNCCO)c21 | HCT-15/ADM2-2 | cell growth, XTT | 72 h | 0.272 µg/mL
CC(C)=CCc1c(O)c(CC=C(C)C)c2oc3c(O)cccc3c(=O)c2c1O | H1L6.1c3 | cell viability, MTT | – | 36 ± 1.7 µM
C=CC(C)(CO)c1cc2cc(-c3ccc(O)cc3O)c(=O)oc2cc1O (centres unmarked) | Hepa1c1c7 | cell growth | – | > 100 µM

Repeated from above:
SMILES | cell line | assay | conditions | IC50
C=CC(C)(CO)c1cc2cc(-c3ccc(O)cc3O)c(=O)oc2cc1O (centres unmarked) | Hepa1c1c7 | cell growth | – | > 100 µM
O=C1C(=Cc2ccccc2)CN(C(=O)c2cccc(C(=O)N3CC(=Cc4ccccc4)C(=O)C(=Cc4ccccc4)C3)c2)CC1=Cc1ccccc1 | L1210 | cell growth or viability | – | 150 µM
